{"data": "Measurements pooled from the literature", "note": "Compare with care: the assays were run in different laboratories. Values joined by “and” are separate records of one study, mostly repeats; a detail may differ. ± gives the spread as reported."}
{"Compound": "C=CC(=O)N1[C@H](c2ccc3c(c2)OCO3)c2[nH]c3ccccc3c2C[C@@H]1C(=O)NC", "target": "PQLC3 Cys135 human", "assay": "cysteine IA-DTB labelling, covalent inhibitor, MS-ABPP", "system": "22Rv1", "conditions": "20 µM, 3 h", "endpoint": "inhibition", "result": "27% and 22%"}
{"Compound": "Cc1ccc(S(=O)(=O)N/N=C/c2ccsc2B(O)O)cc1", "target": "human pancreatic trypsin", "assay": "enzyme activity, inhibitor", "endpoint": "IC50", "result": "> 100 µM"}
{"Compound": "Cn1ccc2cc(-n3c(=O)[nH]c4sc5c(c4c3=O)CCCC5)ccc21", "target": "rat thyroid hormone receptor", "assay": "radioligand binding", "conditions": "10 µM", "endpoint": "inhibition", "result": "0%"}
{"Compound": "C=CC(=O)Nc1cccc(Cn2ncc3cnc(Nc4cnn(CCOC)c4)nc32)c1", "target": "human PKAC-beta", "assay": "KINOMEscan", "conditions": "100 nM", "scale": "baseline: control", "endpoint": "binding", "result": "100%"}
{"Compound": "CC1(C)CC(c2cn(C3CCCN(C(=O)c4ccc5c(c4)CCOC5(C)C)CC3)nn2)CO1 (centres unmarked)", "target": "FSP1, ancestral", "assay": "resazurin reduction, inhibitor", "conditions": "pH 7.2, with: NADH, resazurin", "endpoint": "IC50", "result": "21.5 ± 0.1 µM"}
{"Compound": "C[n+]1cc(NC(=O)c2ccc3ccc4ccc(C(=O)Nc5cc6ccccc6[n+](C)c5)nc4c3n2)cc2ccccc21", "target": "human telomeric G-quadruplex DNA", "assay": "UV melting", "conditions": "6 µM, 100 mM potassium, with: DNA 3 µM", "endpoint": "delta Tm", "result": "6.9 °C"}
{"Compound": "C[S@@](=N)(=O)c1ccc(C(=O)Nc2cc(-c3ccc(F)cc3)ccc2N)cc1", "target": "HDAC4, HDAC9, HDAC11", "assay": "enzyme activity", "conditions": "up to 50 µM", "endpoint": "inhibition", "result": "no inhibition"}
{"Compound": "c1ccc(-c2n[nH]cc2-c2ccnc3ccccc23)nc1", "target": "orf19.6492 Candida albicans", "assay": "kinase binding, MIB/MS competition", "system": "Candida albicans lysate", "conditions": "1 µM", "scale": "baseline: DMSO", "endpoint": "log2 fold change", "result": 0.02}
{"Compound": "Cc1cn(CC(=O)N(CC(=O)N[C@H]2CCC[C@@H]2N(CC(=O)N[C@H]2COC[C@@H]2N(CC(=O)N[C@H]2COC[C@@H]2N(CC(=O)N[C@H]2COC[C@@H]2N(CC(=O)NCCOCCOCC(N)=O)C(=O)Cn2cnc3c(N)ncnc32)C(=O)Cn2cc(C)c(=O)[nH]c2=O)C(=O)Cn2cnc3c(N)ncnc32)C(=O)Cn2cnc3c(=O)[nH]c(N)nc32)[C@H]2CCC[C@@H]2NC(=O)CN(C(=O)Cn2cnc3c(=O)[nH]c(N)nc32)[C@H]2CCC[C@@H]2NC(=O)CN(C(=O)Cn2cc(C)c(=O)[nH]c2=O)[C@H]2COC[C@@H]2NC(=O)CN(C(=O)Cn2cnc3c(N)ncnc32)[C@H]2COC[C@@H]2NC(=O)CN(C(=O)Cn2cnc3c(=O)[nH]c(N)nc32)[C@H]2COC[C@@H]2N)c(=O)[nH]c1=O", "target": "mismatched DNA TT", "assay": "duplex formation, UV melting", "scale": "baseline: complementary DNA", "endpoint": "ΔTm", "result": "-19.5 °C"}
{"Compound": "Fc1ccc(Nc2nc(NC3CCCCC3)c3cc(C(F)(F)F)ccc3n2)cc1F", "target": "β2AR/β1AR ECL3 chimera", "assay": "β-arrestin2 recruitment, antagonist, BRET", "conditions": "with: isoprenaline 1 µM", "endpoint": "pIC50", "result": 6.2}
{"Compound": "Nc1ncc(-c2cc(-c3cnn(CC(F)(F)F)c3)ncc2F)nc1C(=O)NC1CNCC(F)C1 (centres unmarked)", "target": "ERK8", "assay": "KINOMEscan", "conditions": "1 µM", "scale": "baseline: DMSO control", "endpoint": "remaining binding", "result": "12%"}
{"Compound": "CC[C@H](C)[C@H](NC(=O)[C@@H]1CCCN1C(=O)[C@@H](NC(=O)[C@H](C)N)C(C)C)C(=O)N[C@@H](C)C(=O)N[C@@H](CCC(N)=O)C(=O)N[C@@H](CCCCN)C(=O)N[C@@H](CO)C(=O)N[C@@H](CCC(=O)O)C(=O)N1CCC[C@H]1C(=O)N[C@@H](Cc1ccccc1)C(=O)N[C@@H](CCCCN)C(=O)N[C@@H](CCCCN)C(=O)N[C@@H](CCCCN)C(=O)N[C@@H](CCCCNC(=O)CCCCCNC(=S)Nc1ccc2c(c1)C(=O)OC21c2ccc(O)cc2Oc2cc(O)ccc21)C(N)=O", "target": "XIAP (human)", "assay": "DIABLO peptide pull-down", "conditions": "concentration not given, 100-fold competition", "scale": "baseline: empty beads", "endpoint": "log2 fold change", "result": 8.24}
{"Compound": "C[n+]1ccc(/C=N/NC(=O)c2cncc(C(=O)N/N=C/c3cc[n+](C)c4ccccc34)n2)c2ccccc21", "target": "telomeric antiparallel G-quadruplex DNA", "assay": "UV melting", "conditions": "6 µM, 10 mM potassium, with: DNA 3 µM", "endpoint": "delta Tm", "result": "21.3 °C"}
{"Compound": "Nc1nnc(-c2ccccc2O)cc1N1CC2CCC(C1)N2c1ccnc(C#CCCN2CCCCCC2)c1", "target": "FBXO22 Cys117", "assay": "peptide mapping mass spectrometry", "conditions": "50 µM, 4 h, with: SMARCA2", "endpoint": "cysteine modification", "result": "9.28%"}
{"Compound": "C=CC(=O)N1[C@@H](c2ccc3c(c2)OCO3)c2[nH]c3ccccc3c2C[C@H]1C(=O)N1CCN(C)CC1", "target": "CCNE1 WT-3xFLAG:CDK2 complex", "assay": "co-IP TMT proteomics, item: RAB11FIP2", "system": "HEK-293T", "conditions": "20 µM, 6 h", "scale": "baseline: DMSO", "endpoint": "log2 fold change", "result": 0.19}
{"Compound": "Fc1ccc(Nc2nc(NC3CCCCC3)c3cc(Br)ccc3n2)cc1F", "target": "β2AR/β1AR ECL3 chimera", "assay": "β-arrestin2 recruitment, antagonist, BRET", "conditions": "with: isoprenaline 1 µM", "endpoint": "pIC50", "result": 6.2}
{"Compound": "CN(C)CCOc1cc(NC(=O)c2cccc(C(=O)Nc3cc(OCCN(C)C)c4ccccc4n3)n2)nc2ccccc12", "target": "human telomeric G-quadruplex DNA", "assay": "FRET melting", "conditions": "1 µM, pH 7.4, with: 60 mM potassium", "endpoint": "ΔTm", "result": "30 ± 0.6 K"}
{"note": "A few entries again:"}
{"Compound": "C[n+]1ccc(/C=N/NC(=O)c2cncc(C(=O)N/N=C/c3cc[n+](C)c4ccccc34)n2)c2ccccc21", "target": "telomeric antiparallel G-quadruplex DNA", "assay": "UV melting", "conditions": "6 µM, 10 mM potassium, with: DNA 3 µM", "endpoint": "delta Tm", "result": "21.3 °C"}
